# Results of several laboratories.
# Each numbered part is a random draw from the data of one study; scales do not carry over between parts. Substitutions count along the parent as printed.

# Sample 1
# Target: CCND3, cyclin fold, Cln2 fusion (human)
# Method: yeast growth competition, sequencing
# Medium: yeast
# Notes: weak parent motif
# Baseline: not given
# Direction: higher = stronger binding
# Parent: SAMHD1 docking peptide (human); ASKSRVQLFKDDP; partner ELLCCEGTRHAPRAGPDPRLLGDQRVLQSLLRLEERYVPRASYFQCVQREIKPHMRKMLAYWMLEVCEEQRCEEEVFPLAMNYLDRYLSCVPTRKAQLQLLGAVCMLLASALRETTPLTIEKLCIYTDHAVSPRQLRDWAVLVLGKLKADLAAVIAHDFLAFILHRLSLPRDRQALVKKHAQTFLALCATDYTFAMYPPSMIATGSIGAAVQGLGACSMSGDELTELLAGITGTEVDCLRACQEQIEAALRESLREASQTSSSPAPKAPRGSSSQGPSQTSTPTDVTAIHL
Substitution,normalised enrichment score
ASKSIVQLFKDDP [R5I],0.255
ASKSRVNLFKDDP [Q7N],0.0586
ASKSRVQLFKHDP [D11H],0.255
ASKSRVQLTKDDP [F9T],0.0731
ASKKRVQLFKDDP [S4K],-0.478
ASKSRVQLFYDDP [K10Y],-0.131
ASKSRVQLFKCDP [D11C],0.0952
ASKSRVQLFKDGP [D12G],0.171
ASKSRVQLFKLDP [D11L],0.131
ASKSRDQLFKDDP [V6D],-0.262
ASKSRVQLFKSDP [D11S],0.535
ASTSRVQLFKDDP [K3T],-0.0495
ASKSVVQLFKDDP [R5V],0.211
ASKSRVQLFKVDP [D11V],0.218
ASKSRVMLFKDDP [Q7M],-0.313
ASWSRVQLFKDDP [K3W],0.211
ASISRVQLFKDDP [K3I],-0.229
ASKSRVQLFDDDP [K10D],-0.00363

# Sample 2
# Target: RNA binding protein fox-1 homolog 2, RRM domain, GST-SBP tag (RBFOX2, Homo sapiens, UniProt O43251-10, residues 100-194)
# Method: RNA Bind-n-Seq
# Molecule type: RNA
# Medium: in vitro
# Concentration: 365 nM
# Notes: natural RNA segment, single round, ends assumed
# Baseline: no-protein control
# Direction: higher = stronger binding
# Shared flanks, not repeated: GGGAGUUCUACAGUCCGACGAUC … UGGAAUUCUCGGGUGCCAA
# Target sequence (chain): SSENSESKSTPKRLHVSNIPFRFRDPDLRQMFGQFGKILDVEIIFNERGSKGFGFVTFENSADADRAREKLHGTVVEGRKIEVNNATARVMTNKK
Strand,RBNS enrichment (R)
CUUGUGCAGCUCUGGAUCUCUGAGCCUCCCCUGACUAACCUUGAGUAGGAACAUGCUGAUGGGACACCAACAAAGCACAGGGUGCUUUUAAAAUAAAGCCCUGGGCCAGA,0.339
GAACAUCAAGAUACCUUUGCGUGGAUCAAGCUUGUGUACUUGACCGUUUUUAUAUUACUUUUGUAAAUAUUCUUGUCCACAUUCUACUUCAGCUUUGGAUGUGGUUACCG,0.424
CGUUUGUGUAAUGUCCUGAAACCUUGGAGAGGUUCCAGAAUACUUCUGUAUAUAGGGCACAGGUGAAGACAUUGUCCAAAGCUUAUUUAUUUAUCUAUUUAUUUACCCUG,0.405
UGUGUUGACAAGUGGUUGAAGGCCAACCGGACGUGUCCCAUCUGCCGGGCCGACGCCUCCGAGGUGCCCAGGGAGGCUGAGUGAGGCCACGCAGCCGCCUGCCCGGGAGA,0.721
GCAGAUAGUAAGGUACAACUGUGUUUUCUCAAUUGUCUCGAAGAACCAGAGUUCUUAAGUGGCCCAGUUGUGGAGCCAAGUCUAAGUCGUGUGGAGUCAGUGCUGACAUC,0.475
CGAGCCAUUCCCUGGAGACCCUGGGUCUACCCCAGGUGGUCGUCAUCUGGGCCAUUUGCCUUACUUCUCUGGAGCAUACCCACCCUCAGUUACGUGCCAGACCUGGACCG,0.324
UGUCUUAAUGUCGGGGAGCAGCCUGGUGUCCUGCCCCAGGUGUCCGCAUUUUUGCAUGGUAAGGAAAAGGCUUACUUGCCCUUCAGCUCAUAAAAGCAGAAGGUGUGCUA,0.894
AGGGCUACUUUGCUUCUUAAUGUAGGCCUACUGUGCACACCACACACUCUCUCUGAGGGACUGUAGCUAUUAGAUACUGUCCUCACACCCUCGAGCUACCAGCCAGGGCU,0.218

# Sample 3
# Target: ABI1, truncated, D143A, DHFR fusion (Arabidopsis thaliana)
# Method: DHFR PCA, deep sequencing
# Medium: yeast
# Notes: methotrexate growth selection, single substitutions
# Together with: (+)-ABA 0.39 µM
# Baseline: wild-type fitted maximum
# Direction: higher = stronger binding
# Parent: PYL1, truncated, DHFR fusion (Arabidopsis thaliana); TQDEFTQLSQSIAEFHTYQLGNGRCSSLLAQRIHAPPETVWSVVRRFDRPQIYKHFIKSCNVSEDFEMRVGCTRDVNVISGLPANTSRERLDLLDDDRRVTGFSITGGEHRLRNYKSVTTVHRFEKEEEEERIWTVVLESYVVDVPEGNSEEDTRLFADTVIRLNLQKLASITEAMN
Substitution,relative binding score
L164S,28%
P37K,-10.1%
E131R,59.2%
A30Q,22.6%
R46V,-14.3%
V145C,-14.5%
G148R,0.96%
L112F,15.5%
L169N,15.5%
E147R,7.65%
V142W,-25.5%
V70K,1.92%
Q10F,-0.204%

# Sample 4
# Target: Sal-like protein 4, full length isoform A (SALL4, Homo sapiens, UniProt Q9UJQ4, residues 1-1053)
# Sequence of UniProt Q9UJQ4 (whole entry, looked up): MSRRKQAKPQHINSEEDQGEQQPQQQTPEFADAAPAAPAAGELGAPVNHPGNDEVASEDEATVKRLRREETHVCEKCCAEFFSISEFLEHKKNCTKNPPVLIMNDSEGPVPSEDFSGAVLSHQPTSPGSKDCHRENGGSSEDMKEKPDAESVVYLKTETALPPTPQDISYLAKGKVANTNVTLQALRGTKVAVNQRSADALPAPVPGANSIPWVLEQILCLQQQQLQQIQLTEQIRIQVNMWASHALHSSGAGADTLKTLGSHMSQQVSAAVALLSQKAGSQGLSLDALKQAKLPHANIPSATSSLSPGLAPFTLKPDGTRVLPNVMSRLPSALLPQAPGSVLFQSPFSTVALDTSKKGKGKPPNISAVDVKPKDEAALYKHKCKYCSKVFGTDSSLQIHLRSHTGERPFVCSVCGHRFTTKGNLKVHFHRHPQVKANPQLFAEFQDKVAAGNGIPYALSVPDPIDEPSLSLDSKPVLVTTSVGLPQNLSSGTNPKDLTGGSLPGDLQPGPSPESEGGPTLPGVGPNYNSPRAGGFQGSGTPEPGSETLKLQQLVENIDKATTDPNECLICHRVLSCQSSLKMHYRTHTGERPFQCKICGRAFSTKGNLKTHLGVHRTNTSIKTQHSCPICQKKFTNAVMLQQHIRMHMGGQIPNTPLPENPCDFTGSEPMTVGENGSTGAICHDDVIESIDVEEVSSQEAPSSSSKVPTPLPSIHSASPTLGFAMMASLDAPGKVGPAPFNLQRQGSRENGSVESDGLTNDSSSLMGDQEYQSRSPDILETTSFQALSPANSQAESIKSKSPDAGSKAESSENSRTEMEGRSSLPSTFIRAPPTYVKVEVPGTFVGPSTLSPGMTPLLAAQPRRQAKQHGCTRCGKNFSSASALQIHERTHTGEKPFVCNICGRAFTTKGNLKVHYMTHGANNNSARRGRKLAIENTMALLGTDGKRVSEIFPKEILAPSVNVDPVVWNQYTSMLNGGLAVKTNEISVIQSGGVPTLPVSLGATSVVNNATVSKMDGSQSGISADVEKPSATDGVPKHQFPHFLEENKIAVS
# Method: universal PBM
# Molecule type: double-stranded DNA, one strand shown
# Medium: in vitro
# Concentration: 600 nM
# Notes: 8-mer, flanks averaged, mean of replicates
# Direction: higher = stronger binding
Strand,E-score
TTGTGAAA,0.183
AACGCGAT,-0.0954
GGAAATCC,-0.0677
GATATCGC,0.188
ATGCGCGC,-0.0381
CATTCTAG,0.14
TGCGGCCA,-0.246
CGGGCACA,-0.303
ACAAGTTC,-0.031
AGTACATG,0.0342
CTTGTCTA,0.129
CAGCGTGA,-0.163
CCTTTGAG,-0.18
CGTATCCA,-0.0656
AGGTCTAA,0.0586
GCTAGATA,0.136
CCCATGGA,-0.145
TGATTCCA,0.0571
AGCTGGCC,-0.211
ACTTGGAT,0.154
GATTTTGA,0.208
ATATTAAA,0.439
ACGAATCA,0.0834
CCGACGCG,-0.343
CTTTAATC,0.156

# Sample 5
# Target: Fragile X messenger ribonucleoprotein 1, C-terminal low-complexity region (Fmr1, Mus musculus, UniProt P35922)
# Method: RNA Bind-n-Seq
# Molecule type: RNA
# Medium: in vitro
# Concentration: 200 nM
# Notes: whole 134-nt RNA, ends assumed
# Together with: 150 mM LiCl
# Baseline: input library
# Direction: higher = stronger binding
# All molecules: 7-deaza-guanosine replaces G
# Shared flanks, not repeated: GGGAGUUCUACAGUCCGACGAUC … UGGAAUUCUCGGGUGUCAAGG
Strand,log2 enrichment
GACAGACAACACGCACCCACACAGACACAGAGGGAAGGGGUUGGGAUGGGGACAGGGUGCACAGCAGGGCGGGGUAGGACCCCAGCCCCU,0.687
CGGCAGUAGCAGCAGCGCCGGGUCCCGUGCGGAGGUGCUCCUCGCAGAGUUGUUUCUCGAGCAGCGGCAGUUCUCACUACAGCGCCAGGA,-1.98
CUGUGCUACACAUCGUAUGUACCGAAUCGGGGAAAAAAAGGGGAAAAAAAGGGGUUUGGGGAAAGUAUUAUGUUACGCCGUUCGGAUCUG,-1.19
AAGUCCUGUGCUACACAUCGUAUGUACCGAAUCGGGUGGGAAAGGGUUUUUUUGGGAAAGUAUUAUGUUACGCCGUUCGGAUCUGCACUU,-1.72
ACCAUGCAGGUGGGCAUCUUUGGGAAGUGGGGCAAGGGGGGGAUAGGGAGGGGGGUAACACUUUGGGAACAGGUGGUCCCAGGUAAAUUC,1.22
CUCAAGUCCUGUGCUACACAUCGUAUGUACCGAAUCGGAGGAGGAAAAAAAGGAAAGUAUUAUGUUACGCCGUUCGGAUCUGCACUUCCA,-1.2
GCAGGAAGUAAAAACAAAUGGAAAUGCUUCGGAUAGUGGCAGGGGUGGGGGUUGCUAAGGAAAGGCUGGGAUGGGAGUGGGUAAAGAGUU,1.41

# Repeated from above (sample 3):
Substitution,relative binding score
E131R,59.2%
R46V,-14.3%
L169N,15.5%
V145C,-14.5%
L164S,28%
Q10F,-0.204%
V70K,1.92%
V142W,-25.5%
